Experimental data gathered from unrelated publications.
Every numbered part comes from another study and shows a few of its results, in no order.
UniProt P54762, sequence (whole entry, looked up): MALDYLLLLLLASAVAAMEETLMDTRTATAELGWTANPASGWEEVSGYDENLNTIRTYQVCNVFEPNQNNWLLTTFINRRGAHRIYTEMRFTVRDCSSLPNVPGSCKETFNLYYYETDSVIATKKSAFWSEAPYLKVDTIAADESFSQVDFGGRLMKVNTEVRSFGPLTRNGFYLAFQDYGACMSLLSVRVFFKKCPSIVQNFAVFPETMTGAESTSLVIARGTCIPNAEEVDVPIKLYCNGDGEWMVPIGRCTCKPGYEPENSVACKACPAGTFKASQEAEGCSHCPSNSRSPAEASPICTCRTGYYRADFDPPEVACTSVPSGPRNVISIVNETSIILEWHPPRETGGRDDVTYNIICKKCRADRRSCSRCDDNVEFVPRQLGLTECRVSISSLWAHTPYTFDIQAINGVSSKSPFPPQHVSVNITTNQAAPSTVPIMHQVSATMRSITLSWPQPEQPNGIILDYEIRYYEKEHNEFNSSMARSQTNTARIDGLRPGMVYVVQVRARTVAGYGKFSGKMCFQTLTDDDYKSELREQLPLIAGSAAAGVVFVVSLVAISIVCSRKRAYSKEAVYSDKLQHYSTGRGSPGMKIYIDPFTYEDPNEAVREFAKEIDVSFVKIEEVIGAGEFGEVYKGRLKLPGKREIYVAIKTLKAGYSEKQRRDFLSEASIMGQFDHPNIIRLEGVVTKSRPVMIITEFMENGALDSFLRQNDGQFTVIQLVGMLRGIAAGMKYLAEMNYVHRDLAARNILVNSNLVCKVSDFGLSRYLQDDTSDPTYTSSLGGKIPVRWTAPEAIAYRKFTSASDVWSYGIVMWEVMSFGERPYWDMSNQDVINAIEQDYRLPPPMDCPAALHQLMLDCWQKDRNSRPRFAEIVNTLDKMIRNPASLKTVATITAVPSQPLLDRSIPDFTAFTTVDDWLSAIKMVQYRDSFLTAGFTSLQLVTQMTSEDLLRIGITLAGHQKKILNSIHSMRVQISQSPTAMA
UniProt P08069, sequence (whole entry, looked up): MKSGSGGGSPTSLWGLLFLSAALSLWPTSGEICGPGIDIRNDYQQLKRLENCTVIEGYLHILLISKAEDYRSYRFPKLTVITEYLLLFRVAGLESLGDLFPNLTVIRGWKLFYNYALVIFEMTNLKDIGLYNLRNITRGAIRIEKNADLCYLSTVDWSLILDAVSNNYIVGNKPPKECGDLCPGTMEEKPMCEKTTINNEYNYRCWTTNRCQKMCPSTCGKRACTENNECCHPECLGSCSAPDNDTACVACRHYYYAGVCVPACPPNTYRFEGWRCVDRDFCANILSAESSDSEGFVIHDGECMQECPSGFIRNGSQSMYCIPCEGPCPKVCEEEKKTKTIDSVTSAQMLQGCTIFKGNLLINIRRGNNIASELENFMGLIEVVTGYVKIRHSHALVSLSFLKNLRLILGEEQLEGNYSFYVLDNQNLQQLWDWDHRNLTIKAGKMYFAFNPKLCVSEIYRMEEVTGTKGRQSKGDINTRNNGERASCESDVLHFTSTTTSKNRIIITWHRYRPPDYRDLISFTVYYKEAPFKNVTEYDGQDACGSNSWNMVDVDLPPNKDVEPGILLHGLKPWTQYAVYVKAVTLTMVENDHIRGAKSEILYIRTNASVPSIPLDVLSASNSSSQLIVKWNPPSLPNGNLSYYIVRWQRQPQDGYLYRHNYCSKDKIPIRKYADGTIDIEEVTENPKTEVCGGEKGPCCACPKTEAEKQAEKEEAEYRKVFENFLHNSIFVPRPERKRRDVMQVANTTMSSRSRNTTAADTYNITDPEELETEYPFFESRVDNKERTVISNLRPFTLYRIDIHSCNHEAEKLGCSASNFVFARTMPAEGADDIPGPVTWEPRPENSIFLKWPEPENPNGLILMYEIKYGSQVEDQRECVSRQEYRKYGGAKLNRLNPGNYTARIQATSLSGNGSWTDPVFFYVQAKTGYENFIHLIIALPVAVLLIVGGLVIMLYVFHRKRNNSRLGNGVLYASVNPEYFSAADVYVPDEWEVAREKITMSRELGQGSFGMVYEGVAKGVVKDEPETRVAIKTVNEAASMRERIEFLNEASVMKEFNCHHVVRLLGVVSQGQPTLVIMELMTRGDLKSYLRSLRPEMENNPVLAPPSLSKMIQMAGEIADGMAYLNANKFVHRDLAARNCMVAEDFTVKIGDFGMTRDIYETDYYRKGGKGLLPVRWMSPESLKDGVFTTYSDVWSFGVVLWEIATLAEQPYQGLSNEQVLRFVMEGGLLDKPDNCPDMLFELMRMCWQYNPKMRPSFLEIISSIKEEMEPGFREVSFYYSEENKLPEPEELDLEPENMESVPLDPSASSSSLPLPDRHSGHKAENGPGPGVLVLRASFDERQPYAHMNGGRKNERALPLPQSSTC
UniProt P49759, sequence (whole entry, looked up): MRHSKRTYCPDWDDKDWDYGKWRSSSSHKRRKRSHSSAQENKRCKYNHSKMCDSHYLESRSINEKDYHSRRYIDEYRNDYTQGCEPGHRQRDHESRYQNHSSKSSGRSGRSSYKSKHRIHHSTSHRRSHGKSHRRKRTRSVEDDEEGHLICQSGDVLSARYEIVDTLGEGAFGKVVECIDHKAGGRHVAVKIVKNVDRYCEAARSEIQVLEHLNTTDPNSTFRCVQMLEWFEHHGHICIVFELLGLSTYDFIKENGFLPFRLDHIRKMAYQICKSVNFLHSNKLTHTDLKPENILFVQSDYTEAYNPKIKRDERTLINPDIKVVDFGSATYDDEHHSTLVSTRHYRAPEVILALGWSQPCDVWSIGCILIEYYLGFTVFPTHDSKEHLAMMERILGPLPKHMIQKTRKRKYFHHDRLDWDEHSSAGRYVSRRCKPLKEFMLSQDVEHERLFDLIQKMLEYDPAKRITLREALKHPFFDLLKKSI
UniProt P31749, sequence (whole entry, looked up): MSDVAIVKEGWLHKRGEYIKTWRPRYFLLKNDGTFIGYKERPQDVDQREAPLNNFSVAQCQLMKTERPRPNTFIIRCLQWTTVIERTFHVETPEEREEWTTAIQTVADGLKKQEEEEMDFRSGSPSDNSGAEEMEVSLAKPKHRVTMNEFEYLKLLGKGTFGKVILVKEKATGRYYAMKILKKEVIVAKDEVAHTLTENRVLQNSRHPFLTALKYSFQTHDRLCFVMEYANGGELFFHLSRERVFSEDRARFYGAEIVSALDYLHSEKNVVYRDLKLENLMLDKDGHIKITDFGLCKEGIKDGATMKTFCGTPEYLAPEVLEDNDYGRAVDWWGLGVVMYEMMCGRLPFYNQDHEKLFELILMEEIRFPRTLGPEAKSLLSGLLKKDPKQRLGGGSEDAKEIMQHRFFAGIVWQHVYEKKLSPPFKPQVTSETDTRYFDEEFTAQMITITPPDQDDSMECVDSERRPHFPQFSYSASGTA
UniProt Q07912, sequence (whole entry, looked up): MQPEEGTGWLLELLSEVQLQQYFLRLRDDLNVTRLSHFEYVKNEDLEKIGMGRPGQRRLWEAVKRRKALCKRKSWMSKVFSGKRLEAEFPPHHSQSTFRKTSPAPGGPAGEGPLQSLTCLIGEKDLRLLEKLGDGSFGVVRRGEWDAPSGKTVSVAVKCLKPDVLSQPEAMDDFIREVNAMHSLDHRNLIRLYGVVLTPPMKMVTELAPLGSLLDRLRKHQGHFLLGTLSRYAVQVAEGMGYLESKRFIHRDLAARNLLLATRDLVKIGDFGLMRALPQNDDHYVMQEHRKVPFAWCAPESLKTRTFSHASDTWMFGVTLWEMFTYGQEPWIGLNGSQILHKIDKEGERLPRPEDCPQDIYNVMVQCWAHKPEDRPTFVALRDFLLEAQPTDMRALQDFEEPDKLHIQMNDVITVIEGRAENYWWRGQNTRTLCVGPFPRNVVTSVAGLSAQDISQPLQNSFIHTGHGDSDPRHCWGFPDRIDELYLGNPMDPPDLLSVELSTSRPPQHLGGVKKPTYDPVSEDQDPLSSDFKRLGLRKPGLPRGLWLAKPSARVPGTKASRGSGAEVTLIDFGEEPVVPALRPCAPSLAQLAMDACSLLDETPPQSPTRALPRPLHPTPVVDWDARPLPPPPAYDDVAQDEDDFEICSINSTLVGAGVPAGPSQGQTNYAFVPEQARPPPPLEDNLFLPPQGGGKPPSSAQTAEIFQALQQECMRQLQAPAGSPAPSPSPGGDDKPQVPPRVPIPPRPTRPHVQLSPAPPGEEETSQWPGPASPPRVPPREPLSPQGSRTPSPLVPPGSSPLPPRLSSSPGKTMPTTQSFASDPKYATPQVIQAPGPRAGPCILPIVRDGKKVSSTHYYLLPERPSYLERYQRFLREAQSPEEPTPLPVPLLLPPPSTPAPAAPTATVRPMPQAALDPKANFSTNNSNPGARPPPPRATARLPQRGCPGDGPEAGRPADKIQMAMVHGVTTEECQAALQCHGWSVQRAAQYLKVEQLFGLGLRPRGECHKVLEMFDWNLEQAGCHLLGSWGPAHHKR
UniProt Q96SB4, sequence (whole entry, looked up): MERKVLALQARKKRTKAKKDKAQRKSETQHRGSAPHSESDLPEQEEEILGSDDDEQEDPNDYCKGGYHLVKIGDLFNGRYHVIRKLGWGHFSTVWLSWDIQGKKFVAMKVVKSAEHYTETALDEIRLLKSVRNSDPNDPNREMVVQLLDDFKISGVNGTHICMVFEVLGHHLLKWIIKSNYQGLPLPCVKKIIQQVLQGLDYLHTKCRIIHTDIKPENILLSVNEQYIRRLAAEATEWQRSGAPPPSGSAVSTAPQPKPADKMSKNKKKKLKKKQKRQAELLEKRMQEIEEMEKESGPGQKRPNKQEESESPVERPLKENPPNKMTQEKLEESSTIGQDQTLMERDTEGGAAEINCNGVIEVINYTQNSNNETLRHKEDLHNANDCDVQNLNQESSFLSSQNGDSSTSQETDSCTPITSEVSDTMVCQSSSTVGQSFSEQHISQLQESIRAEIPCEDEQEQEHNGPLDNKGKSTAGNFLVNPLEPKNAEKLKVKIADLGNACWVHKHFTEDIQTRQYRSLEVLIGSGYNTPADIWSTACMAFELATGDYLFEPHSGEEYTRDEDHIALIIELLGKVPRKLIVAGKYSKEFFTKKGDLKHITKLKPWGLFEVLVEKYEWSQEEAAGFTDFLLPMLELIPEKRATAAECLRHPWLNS

Series 1 — read-out: cell-free assay; method: competition with immobilised ligand; concentration: 1 µM
SMILES: NS(=O)(=O)c1cc(NC(=O)C2(c3ccccc3Cl)CC2)ccc1Oc1cccc(Cl)c1
target | remaining binding [%]
MAP2K2 (Homo sapiens, UniProt P36507) | 89
TNK2 (Homo sapiens, UniProt Q07912) | 82
EGFR (Homo sapiens, UniProt P00533, del752-759) | 85
ERBB3 (Homo sapiens, UniProt P21860) | 84
PIKFYVE (Homo sapiens, UniProt Q9Y2I7) | 100
EPHB1 (Homo sapiens, UniProt P54762) | 78
AKT1 (Homo sapiens, UniProt P31749) | 78

Series 2 — read-out: enzyme activity; action: inhibitor; concentration: 0.5 µM; baseline: control
Structure (SMILES): O=c1cc(-c2cccc3c2Sc2ccccc2S3)oc(N2CCOCC2)c1
target | remaining activity [%]
PAK6 (Homo sapiens, UniProt Q9NQU5) | 95.6
SRPK1 (Homo sapiens, UniProt Q96SB4) | 105
EPHA2 (Homo sapiens, UniProt P29317) | 96.2
SGK2 (Homo sapiens, UniProt Q9HBY8) | 115
PRKCZ (Homo sapiens, UniProt Q05513) | 102
MAP3K20 (Homo sapiens, UniProt Q9NYL2) | 100
IGF1R (Homo sapiens, UniProt P08069) | 98.2
CLK1 (Homo sapiens, UniProt P49759) | 103
PRKCQ (Homo sapiens, UniProt Q04759) | 112

Series 3 — method: RNA Bind-n-Seq; form: RNA; medium: in vitro; concentration: 20 nM; notes: 6-mer, flanks averaged, single round; with: 150 mM LiCl; baseline: input library; direction: higher = stronger binding
Target: TAR DNA-binding protein 43, full length, His tag (TARDBP, Homo sapiens, UniProt Q13148, residues 1-414)
Sequence | 6-mer enrichment (R)
CGGCAU | 0.92
UUGUGG | 1.38
CGCGAG | 0.947
UAUGAC | 0.899
GUACUA | 0.846
UGCGUA | 1.07
AGUUGA | 0.983
GCUAUC | 0.87

Further values, each from its own experiment
Compound | medium | quantity | value
CCC[C@@H]1NC(=O)CSC[C@@H](C(=O)OCC)N(C)C(=O)[C@H](CC(C)C)NC(=O)[C@H](C)N(C)C(=O)[C@@H](CC(C)C)NC(=O)[C@H](C)N(C)C(=O)[C@H]2CCCN2C(=O)[C@H](CC(C)C)NC(=O)CN(C)C1=O | hydrocarbon/water | logD | -0.0142

A few entries again (series 2):
target | remaining activity [%]
PAK6 (Homo sapiens, UniProt Q9NQU5) | 95.6
MAP3K20 (Homo sapiens, UniProt Q9NYL2) | 100
CLK1 (Homo sapiens, UniProt P49759) | 103
